Literature values as cited in several papers.
Lines come from different studies, so protocols differ. ± marks the error that the study gave.
Slc6a3: Sodium-dependent dopamine transporter (Slc6a3, Rattus norvegicus, UniProt P23977)
Chain of UniProt P23977 (whole entry, looked up): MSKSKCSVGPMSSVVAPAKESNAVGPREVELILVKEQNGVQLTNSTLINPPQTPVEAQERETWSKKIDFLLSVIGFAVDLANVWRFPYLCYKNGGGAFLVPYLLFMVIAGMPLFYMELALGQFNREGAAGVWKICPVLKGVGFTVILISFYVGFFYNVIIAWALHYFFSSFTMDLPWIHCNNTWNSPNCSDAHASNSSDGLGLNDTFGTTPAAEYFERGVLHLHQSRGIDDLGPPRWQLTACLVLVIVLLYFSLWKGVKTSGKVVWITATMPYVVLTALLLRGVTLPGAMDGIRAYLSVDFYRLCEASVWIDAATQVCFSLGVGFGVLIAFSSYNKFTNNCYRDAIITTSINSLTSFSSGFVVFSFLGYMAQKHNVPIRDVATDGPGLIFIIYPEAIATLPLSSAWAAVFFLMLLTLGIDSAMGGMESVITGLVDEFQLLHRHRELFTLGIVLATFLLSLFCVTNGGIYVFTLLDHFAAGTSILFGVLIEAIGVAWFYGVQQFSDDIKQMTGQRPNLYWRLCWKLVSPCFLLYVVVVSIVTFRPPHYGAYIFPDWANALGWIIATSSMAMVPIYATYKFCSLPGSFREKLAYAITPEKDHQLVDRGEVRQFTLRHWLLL
Slc6a4: Sodium-dependent serotonin transporter (Slc6a4, Rattus norvegicus, UniProt P31652)
Chain of UniProt P31652 (whole entry, looked up): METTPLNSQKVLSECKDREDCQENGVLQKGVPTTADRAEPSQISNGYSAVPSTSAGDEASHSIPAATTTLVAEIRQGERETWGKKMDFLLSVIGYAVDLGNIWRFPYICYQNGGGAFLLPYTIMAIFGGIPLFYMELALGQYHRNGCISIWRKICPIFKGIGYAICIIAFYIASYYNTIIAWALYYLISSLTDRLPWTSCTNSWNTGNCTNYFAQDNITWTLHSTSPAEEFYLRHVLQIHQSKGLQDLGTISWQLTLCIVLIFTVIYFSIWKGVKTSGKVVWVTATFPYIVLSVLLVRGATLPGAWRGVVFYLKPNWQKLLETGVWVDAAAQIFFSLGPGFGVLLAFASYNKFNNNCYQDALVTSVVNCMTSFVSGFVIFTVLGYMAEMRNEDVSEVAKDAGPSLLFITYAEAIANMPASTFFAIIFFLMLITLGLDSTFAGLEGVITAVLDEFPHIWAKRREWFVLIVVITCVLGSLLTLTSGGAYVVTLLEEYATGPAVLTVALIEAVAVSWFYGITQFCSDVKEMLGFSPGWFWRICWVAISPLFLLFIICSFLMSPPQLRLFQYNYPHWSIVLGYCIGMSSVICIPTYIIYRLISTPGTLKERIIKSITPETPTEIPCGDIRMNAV
GABRA1/GABRB3 L291T with gamma-2 subunit: GABA-A receptor alpha-1/beta-3, with gamma-2 subunit (GABRA1/GABRB3, Homo sapiens, UniProt P14867+P28472, L291T)
Chain of UniProt P28472 (whole entry, unmodified, looked up): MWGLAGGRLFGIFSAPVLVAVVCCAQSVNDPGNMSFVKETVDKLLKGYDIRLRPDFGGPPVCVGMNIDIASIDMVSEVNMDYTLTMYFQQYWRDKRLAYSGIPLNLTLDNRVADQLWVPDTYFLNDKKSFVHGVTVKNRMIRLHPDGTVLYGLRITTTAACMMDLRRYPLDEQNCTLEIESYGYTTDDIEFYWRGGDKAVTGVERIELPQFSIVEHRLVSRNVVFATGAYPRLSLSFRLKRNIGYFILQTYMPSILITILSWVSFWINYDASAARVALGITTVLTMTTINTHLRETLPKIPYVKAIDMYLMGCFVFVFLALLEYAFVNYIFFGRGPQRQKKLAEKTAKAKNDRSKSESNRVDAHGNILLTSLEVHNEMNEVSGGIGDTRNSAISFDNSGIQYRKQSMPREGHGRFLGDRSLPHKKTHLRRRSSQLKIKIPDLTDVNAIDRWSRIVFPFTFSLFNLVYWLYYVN
Chain of UniProt P14867 (whole entry, unmodified, looked up): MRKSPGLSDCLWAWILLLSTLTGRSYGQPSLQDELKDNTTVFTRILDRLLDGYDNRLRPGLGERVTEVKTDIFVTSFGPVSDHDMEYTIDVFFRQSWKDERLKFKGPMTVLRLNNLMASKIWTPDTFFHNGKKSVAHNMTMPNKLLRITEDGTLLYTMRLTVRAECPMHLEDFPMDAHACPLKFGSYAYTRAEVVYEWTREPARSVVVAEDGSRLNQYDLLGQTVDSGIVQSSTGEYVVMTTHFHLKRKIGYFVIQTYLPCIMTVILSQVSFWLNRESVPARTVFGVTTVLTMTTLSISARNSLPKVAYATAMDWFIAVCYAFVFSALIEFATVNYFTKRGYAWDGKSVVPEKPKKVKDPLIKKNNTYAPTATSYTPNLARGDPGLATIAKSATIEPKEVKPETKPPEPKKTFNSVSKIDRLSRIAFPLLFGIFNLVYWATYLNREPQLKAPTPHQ
Chain of UniProt Q96RJ0 (whole entry, looked up): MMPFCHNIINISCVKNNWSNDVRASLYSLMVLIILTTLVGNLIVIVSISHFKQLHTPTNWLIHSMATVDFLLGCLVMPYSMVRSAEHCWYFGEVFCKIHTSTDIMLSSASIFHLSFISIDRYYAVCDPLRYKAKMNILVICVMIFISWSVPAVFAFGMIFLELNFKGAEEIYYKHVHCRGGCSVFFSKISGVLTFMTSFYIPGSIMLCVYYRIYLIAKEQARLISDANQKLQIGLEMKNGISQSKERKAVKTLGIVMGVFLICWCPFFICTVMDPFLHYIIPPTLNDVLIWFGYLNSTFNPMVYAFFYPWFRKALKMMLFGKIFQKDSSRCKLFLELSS
Chain of UniProt P28223 (whole entry, looked up): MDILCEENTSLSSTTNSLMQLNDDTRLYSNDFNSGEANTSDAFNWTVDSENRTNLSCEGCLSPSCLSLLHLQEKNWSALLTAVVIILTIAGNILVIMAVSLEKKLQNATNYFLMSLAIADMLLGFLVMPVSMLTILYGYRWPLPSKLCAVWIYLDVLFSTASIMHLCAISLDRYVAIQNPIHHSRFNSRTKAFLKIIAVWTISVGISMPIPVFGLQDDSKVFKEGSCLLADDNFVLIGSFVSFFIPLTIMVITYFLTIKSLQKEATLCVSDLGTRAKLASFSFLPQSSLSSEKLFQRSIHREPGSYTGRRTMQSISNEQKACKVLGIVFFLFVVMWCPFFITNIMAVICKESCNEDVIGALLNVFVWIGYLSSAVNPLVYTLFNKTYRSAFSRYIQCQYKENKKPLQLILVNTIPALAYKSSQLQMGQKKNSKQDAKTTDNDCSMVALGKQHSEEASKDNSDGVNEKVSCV
Chain of UniProt Q01959 (whole entry, looked up): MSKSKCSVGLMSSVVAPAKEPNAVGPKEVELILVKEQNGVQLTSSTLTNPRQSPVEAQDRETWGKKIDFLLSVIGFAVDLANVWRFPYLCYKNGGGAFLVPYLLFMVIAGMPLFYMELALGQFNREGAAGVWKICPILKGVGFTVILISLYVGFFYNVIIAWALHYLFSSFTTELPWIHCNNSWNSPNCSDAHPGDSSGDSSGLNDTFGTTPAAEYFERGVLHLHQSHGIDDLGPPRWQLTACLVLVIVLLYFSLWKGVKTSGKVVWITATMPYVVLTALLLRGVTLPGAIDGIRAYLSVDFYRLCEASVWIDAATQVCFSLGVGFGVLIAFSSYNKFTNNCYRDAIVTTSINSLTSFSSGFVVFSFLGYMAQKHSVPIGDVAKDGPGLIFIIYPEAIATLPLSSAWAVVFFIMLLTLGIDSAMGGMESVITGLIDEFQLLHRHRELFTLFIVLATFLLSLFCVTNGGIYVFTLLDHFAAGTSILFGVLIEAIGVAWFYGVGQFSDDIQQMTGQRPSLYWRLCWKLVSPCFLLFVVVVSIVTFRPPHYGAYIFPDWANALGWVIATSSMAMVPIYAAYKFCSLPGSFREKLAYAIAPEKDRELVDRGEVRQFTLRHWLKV

Compound	target	effect on	action	cell line	sample	notes	EC50 [nM]
COc1cc(CCN)c(OC)cc1I	HTR2A (Homo sapiens, UniProt P28223)	–	agonist	–	–	–	60
CNC(C)C(=O)c1ccc(C)cc1 (stereo not drawn)	Slc6a3	substrate release	releaser	–	rat brain synaptosomes	–	49.1
CNC(C)C(=O)c1ccc(C)cc1 (stereo not drawn)	Slc6a4	–	–	–	–	–	122 ± 10
CNC(C)C(=O)c1ccc(C(F)(F)F)cc1 (stereo not drawn)	Slc6a4	substrate release	releaser	–	rat brain synaptosomes	–	190
CNC(C)C(=O)c1ccc2c(c1)OCO2 (stereo not drawn)	Slc6a3	–	–	–	–	–	117 ± 12
NCCc1ccccc1	TAAR1 (Homo sapiens, UniProt Q96RJ0)	–	agonist	–	–	–	138 to 260
CCOC(=O)c1cncn1C1(c2ccccc2)CC1	GABRA1/GABRB3 L291T with gamma-2 subunit	ion current	agonist	–	–	50% of 100 µM GABA current	67600 ± 8100
CNC(C)Cc1ccc2c(c1)OCO2 (stereo not drawn)	SLC6A3 (Homo sapiens, UniProt Q01959)	[3H]dopamine release	releaser	HEK293 expressing transporter	–	–	7500 ± 2300
CC1(C)C(C(=O)c2cn(CCCCCF)c3ccccc23)C1(C)C	CB1 receptor	GIRK channel current	agonist	–	–	–	98
CCOC(=O)c1cncn1Cc1ccccc1	GABRA1/GABRB3 L291T with gamma-2 subunit	ion current	agonist	–	–	50% of 100 µM GABA current	161000 ± 13000
CNC(C)C(=O)c1ccc(Cl)cc1 (stereo not drawn)	Slc6a4	substrate release	releaser	–	rat brain synaptosomes	–	144
CC[C@@H](c1cccc(O)c1)[C@@H](C)CN(C)C	mu-opioid receptor	functional activity	agonist	–	–	–	670

Some of these lines once more:
Compound	target	effect on	action	cell line	sample	notes	EC50 [nM]
CNC(C)C(=O)c1ccc2c(c1)OCO2 (stereo not drawn)	Slc6a3	–	–	–	–	–	117 ± 12
